Measured values of several laboratories.
Parts stem from different laboratories: compare values within a part only. Several values in a cell are separate wells, animals, samples, runs or records.
Sequence of UniProt O75116 (whole entry, looked up): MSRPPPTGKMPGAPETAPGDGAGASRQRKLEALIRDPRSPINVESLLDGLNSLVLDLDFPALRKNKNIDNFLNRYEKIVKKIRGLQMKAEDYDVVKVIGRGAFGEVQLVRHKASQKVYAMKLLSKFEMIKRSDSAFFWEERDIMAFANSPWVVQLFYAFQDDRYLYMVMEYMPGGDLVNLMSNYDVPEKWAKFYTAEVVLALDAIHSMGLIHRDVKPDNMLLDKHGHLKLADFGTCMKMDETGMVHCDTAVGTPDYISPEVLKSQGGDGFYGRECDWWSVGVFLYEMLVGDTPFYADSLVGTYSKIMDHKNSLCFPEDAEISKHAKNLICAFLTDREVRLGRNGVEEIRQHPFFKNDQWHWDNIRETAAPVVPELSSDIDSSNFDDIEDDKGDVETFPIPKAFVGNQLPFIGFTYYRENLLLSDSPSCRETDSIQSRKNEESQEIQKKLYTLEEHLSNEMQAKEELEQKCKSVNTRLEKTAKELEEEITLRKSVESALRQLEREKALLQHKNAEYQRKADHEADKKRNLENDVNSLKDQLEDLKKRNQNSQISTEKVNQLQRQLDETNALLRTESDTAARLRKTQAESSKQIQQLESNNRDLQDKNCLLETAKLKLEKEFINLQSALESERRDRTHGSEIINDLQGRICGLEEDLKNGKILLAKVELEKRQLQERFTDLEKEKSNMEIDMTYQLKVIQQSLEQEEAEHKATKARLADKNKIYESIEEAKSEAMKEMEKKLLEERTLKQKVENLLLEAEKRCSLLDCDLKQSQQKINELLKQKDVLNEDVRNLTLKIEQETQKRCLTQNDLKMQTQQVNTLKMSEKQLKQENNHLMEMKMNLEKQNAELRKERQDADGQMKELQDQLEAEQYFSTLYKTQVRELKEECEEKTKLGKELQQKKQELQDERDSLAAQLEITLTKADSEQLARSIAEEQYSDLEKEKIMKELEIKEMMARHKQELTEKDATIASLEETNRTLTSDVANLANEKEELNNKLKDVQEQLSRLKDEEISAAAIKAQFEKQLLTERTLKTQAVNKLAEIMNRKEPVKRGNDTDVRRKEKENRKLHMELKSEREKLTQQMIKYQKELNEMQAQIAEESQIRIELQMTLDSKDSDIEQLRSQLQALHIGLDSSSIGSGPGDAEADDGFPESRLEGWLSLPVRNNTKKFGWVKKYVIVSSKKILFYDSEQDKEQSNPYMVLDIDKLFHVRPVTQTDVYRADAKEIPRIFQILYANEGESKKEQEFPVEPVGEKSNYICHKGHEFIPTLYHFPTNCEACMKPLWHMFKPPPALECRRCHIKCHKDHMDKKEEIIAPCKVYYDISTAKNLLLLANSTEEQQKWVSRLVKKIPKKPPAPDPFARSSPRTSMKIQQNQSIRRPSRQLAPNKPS
Sequence of UniProt Q13237 (whole entry, looked up): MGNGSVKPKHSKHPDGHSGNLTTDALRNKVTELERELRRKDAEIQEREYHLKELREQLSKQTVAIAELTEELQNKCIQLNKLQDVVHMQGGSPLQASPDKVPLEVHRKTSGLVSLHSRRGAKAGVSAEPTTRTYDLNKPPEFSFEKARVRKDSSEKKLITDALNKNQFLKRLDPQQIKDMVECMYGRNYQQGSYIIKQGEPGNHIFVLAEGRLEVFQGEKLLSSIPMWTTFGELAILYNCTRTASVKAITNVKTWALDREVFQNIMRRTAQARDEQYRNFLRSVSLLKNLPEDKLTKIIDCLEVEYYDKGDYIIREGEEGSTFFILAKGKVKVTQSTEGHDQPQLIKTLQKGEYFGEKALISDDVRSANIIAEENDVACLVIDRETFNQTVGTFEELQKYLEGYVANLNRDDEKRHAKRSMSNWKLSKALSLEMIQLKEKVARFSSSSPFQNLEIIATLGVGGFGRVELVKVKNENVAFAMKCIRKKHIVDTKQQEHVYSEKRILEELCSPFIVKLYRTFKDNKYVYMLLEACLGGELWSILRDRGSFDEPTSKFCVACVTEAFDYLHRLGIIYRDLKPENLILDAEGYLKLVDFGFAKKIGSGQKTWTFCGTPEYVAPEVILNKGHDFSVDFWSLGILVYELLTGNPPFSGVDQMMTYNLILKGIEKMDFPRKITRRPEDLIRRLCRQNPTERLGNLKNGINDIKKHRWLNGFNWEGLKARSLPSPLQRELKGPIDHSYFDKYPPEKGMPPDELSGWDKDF
Sequence of UniProt P11802 (whole entry, looked up): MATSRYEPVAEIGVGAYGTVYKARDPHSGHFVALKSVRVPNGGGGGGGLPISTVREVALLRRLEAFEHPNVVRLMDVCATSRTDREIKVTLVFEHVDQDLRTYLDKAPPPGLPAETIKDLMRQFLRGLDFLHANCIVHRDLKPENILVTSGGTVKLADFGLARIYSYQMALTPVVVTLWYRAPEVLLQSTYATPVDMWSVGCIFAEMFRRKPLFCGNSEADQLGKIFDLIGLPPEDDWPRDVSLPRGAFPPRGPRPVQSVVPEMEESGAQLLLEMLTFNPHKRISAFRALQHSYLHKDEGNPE
Sequence of UniProt P10721 (whole entry, unmodified, looked up): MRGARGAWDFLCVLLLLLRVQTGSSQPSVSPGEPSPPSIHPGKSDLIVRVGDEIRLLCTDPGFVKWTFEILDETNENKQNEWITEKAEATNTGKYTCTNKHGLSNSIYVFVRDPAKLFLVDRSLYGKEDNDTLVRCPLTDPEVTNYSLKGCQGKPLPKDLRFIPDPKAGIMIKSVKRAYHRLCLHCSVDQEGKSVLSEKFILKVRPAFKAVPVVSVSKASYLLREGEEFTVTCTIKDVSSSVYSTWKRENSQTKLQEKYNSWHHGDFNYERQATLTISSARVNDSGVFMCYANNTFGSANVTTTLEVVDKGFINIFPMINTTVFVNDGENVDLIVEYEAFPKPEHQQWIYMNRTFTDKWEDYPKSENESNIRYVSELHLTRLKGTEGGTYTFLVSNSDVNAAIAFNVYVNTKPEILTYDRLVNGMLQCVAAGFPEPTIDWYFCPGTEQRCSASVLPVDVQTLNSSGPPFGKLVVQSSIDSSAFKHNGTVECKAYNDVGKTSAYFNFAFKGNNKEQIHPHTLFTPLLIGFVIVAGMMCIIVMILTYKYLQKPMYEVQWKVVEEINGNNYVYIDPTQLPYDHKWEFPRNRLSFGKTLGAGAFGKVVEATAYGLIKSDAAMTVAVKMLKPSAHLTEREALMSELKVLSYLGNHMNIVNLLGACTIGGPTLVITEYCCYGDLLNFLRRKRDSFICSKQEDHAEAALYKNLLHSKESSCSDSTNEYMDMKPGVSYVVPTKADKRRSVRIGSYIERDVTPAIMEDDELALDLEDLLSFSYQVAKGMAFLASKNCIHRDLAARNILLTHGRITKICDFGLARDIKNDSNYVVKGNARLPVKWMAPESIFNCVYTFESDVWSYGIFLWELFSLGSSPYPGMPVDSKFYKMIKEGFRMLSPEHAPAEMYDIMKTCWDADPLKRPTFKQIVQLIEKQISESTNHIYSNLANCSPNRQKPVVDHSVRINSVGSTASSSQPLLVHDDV

Study 1
Target: Beta-1 adrenergic receptor (ADRB1, Homo sapiens, UniProt P08588)
Sequence of UniProt P08588 (whole entry, looked up): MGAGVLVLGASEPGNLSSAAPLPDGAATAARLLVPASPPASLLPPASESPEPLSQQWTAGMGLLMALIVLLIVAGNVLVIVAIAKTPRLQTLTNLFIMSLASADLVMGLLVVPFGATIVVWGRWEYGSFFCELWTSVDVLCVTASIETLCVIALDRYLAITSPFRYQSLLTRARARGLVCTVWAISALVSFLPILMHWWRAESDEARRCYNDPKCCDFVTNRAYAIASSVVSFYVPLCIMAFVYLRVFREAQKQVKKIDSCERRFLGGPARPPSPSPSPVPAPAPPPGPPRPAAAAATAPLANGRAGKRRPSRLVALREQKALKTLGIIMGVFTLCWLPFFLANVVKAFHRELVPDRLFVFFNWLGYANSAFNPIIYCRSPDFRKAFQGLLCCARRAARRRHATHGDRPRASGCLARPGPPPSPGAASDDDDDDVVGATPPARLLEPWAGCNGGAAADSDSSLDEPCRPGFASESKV
Action: antagonist
`Cc1ccccc1-c1n[nH]c2ncc(-c3ccsc3)nc12` has an IC50 of no less than 100 µM.
`CCn1ccnc1CN(C)Cc1cccc(OCC(O)CN(C)C2CCCCC2)c1` (centres unmarked) has an IC50 of no less than 100 µM.
`CC(C)Cc1cc(CC2(NCc3ccc(N(C)C)cc3)COC2)no1` gave an IC50 of no less than 100 µM.
With `Cc1cc(-c2ccccc2)nc2ccccc12` the IC50 was 15.8 µM.
With `COc1ccccc1-c1ccc2ncc(Nc3cc(F)cc(N4CCOCC4)c3)n2n1` the IC50 was no less than 100 µM.

Study 2
Cell line: HaCaT
Concentration: 100 µM
Time: 60 h
With `Cc1ccc(S(=O)(=O)NC(=O)NN2CC3CCC[C@@H]3C2)cc1` (stereo in doubt) the viability was 134%.
For `CC1CNc2c(cccc2S(=O)(=O)N[C@@H](CCCNC(=N)N)C(=O)N2CC[C@@H](C)C[C@@H]2C(=O)O)C1` (some centres unmarked), the viability was 146%.
`CC[C@@H]1/C=C(\C)C[C@H](C)C[C@H](OC)[C@H]2O[C@@](O)(C(=O)C(=O)N3CCCC[C@H]3C(=O)O[C@H](/C(C)=C/[C@@H]3CC[C@H](Cl)[C@H](OC)C3)[C@H](C)[C@@H](O)CC1=O)[C@H](C)C[C@@H]2OC` has a viability of 47.6%.
`CCCOc1ccc(C(=O)OCCN(CC)CC)cc1N` gave a viability of 143%.
With `OCCN1C[C@H](O)[C@@H](O)[C@H](O)[C@H]1CO` the viability was 131%.

Study 3
SMILES: Cc1cc(NC(=O)c2cccc(S(F)(F)(F)(F)F)c2)cc(-n2ccn3nc(-c4cccnc4)cc23)c1
Observed: cell-free assay
Method: competition with immobilised ligand
Concentration: 1 µM
It gave 100% for remaining binding (cGMP-dependent protein kinase 2 (PRKG2, Homo sapiens, UniProt Q13237)).
It gave 73.1% for remaining binding (Mast/stem cell growth factor receptor Kit (KIT, Homo sapiens, UniProt P10721, D816H)).
For Serine/threonine-protein kinase N2 (PKN2, Homo sapiens, UniProt Q16513): remaining binding read 100%.
Tyrosine-protein kinase ABL1, phosphorylated (ABL1, Homo sapiens, UniProt P00519) — remaining binding: 73.6%.
It gave 100% for remaining binding (Tyrosine-protein kinase ABL1, phosphorylated (ABL1, Homo sapiens, UniProt P00519, Y253F)).
The remaining binding was 96.9% (Tyrosine-protein kinase JAK3, JH1 (JAK3, Homo sapiens, UniProt P52333)).
The remaining binding was 100% (Cyclin-dependent kinase 4, with cyclin D3 (CDK4, Homo sapiens, UniProt P11802)).
It gave 100% for remaining binding (Cyclin-G-associated kinase (GAK, Homo sapiens, UniProt O14976)).
The remaining binding was 97.6% (Epidermal growth factor receptor (EGFR, Homo sapiens, UniProt P00533, L858R/T790M)).
The remaining binding was 82% (Aurora kinase B (AURKB, Homo sapiens, UniProt Q96GD4)).
The remaining binding was 89% (Ribosomal protein S6 kinase alpha-3, C-terminal kinase domain (RPS6KA3, Homo sapiens, UniProt P51812)).
Rho-associated protein kinase 2 (ROCK2, Homo sapiens, UniProt O75116) — remaining binding: 87.6%.
For Bone morphogenetic protein receptor type-1A (BMPR1A, Homo sapiens, UniProt P36894): remaining binding read 94.4%.
For Receptor-type tyrosine-protein kinase FLT3 (FLT3, Homo sapiens, UniProt P36888): remaining binding read 100%.
It gave 100% for remaining binding (ALK tyrosine kinase receptor (ALK, Homo sapiens, UniProt Q9UM73, C1156Y)).
The remaining binding was 100% (Dual specificity mitogen-activated protein kinase kinase 6 (MAP2K6, Homo sapiens, UniProt P52564)).
The remaining binding was 77.9% (Calcium/calmodulin-dependent protein kinase type 1 (CAMK1, Homo sapiens, UniProt Q14012)).
Serine/threonine-protein kinase Sgk2 (SGK2, Homo sapiens, UniProt Q9HBY8) — remaining binding: 100%.
Serine/threonine-protein kinase DCLK2 (DCLK2, Homo sapiens, UniProt Q8N568) — remaining binding: 100%.
The remaining binding was 72.7% (Interferon-induced, double-stranded RNA-activated protein kinase (EIF2AK2, Homo sapiens, UniProt P19525)).
The remaining binding was 100% (Interleukin-1 receptor-associated kinase 3 (IRAK3, Homo sapiens, UniProt Q9Y616)).
It gave 100% for remaining binding (Tyrosine-protein kinase Tec (TEC, Homo sapiens, UniProt P42680)).
The remaining binding was 100% (Receptor-type tyrosine-protein kinase FLT3 (FLT3, Homo sapiens, UniProt P36888, D835Y)).
For MAP kinase-interacting serine/threonine-protein kinase 1 (MKNK1, Homo sapiens, UniProt Q9BUB5): remaining binding read 100%.
For Calcium/calmodulin-dependent protein kinase type II subunit delta (CAMK2D, Homo sapiens, UniProt Q13557): remaining binding read 80%.

Study 4
Structure (SMILES): CC(C)C[C@@H]1NC(=O)[C@@H](N(C)C(=O)[C@H](CC2CCC2)NC(=O)[C@@H]2C[C@@H](F)CN2C(=O)C2(C(F)(F)F)CC(F)(F)C2)CCCCNC(=O)C2(CC2)NC(=O)[C@H](Cc2cc(Cl)ccc2Cl)N(C)C1=O
Method: PI flow cytometry
Time: 24 h
The “S phase cells” was 26.5% and 21.3% and 34.5% (HCC4006; 20 nM).
For NCI-H82; 200 nM: “S phase cells” read 36.6% and 30.7%.
The “S phase cells” was 20.1% and 17.4% and 15% (NCI-H1299; 200 nM).

Study 5
SMILES: C=CCc1ccc(O)c(-c2ccc(O)c(CC=C)c2)c1
Observed: chloride current
Method: whole-cell voltage clamp
ANO1 del476-501/R631K: Anoctamin-1 (ANO1, Homo sapiens, UniProt Q5XXA6, del476-501/R631K)
Sequence of UniProt Q5XXA6 (whole entry, unmodified, looked up): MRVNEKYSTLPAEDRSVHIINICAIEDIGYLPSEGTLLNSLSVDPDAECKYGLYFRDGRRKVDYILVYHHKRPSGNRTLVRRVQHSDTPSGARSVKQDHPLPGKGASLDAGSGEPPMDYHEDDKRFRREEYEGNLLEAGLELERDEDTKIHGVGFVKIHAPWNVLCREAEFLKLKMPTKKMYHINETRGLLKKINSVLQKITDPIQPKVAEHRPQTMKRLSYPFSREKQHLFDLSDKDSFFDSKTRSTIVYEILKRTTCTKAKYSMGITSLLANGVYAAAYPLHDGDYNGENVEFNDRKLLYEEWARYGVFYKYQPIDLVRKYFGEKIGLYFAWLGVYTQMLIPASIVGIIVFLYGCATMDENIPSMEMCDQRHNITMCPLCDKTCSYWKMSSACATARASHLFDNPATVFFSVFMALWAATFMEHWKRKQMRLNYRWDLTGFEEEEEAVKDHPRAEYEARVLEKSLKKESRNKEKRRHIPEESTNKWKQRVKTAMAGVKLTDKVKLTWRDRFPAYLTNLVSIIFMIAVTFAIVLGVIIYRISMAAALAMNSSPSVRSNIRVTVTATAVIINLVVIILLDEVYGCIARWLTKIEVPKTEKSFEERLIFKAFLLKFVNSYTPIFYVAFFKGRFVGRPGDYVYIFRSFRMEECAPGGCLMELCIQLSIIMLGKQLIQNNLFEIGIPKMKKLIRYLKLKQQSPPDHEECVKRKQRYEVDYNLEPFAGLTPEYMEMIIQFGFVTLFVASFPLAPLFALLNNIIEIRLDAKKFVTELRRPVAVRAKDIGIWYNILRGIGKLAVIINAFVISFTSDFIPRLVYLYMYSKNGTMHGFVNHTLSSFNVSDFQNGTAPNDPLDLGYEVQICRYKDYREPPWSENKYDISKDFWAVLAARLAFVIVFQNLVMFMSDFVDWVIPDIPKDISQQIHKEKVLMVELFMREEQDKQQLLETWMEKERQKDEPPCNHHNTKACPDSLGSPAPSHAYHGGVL
It gave 11.3 µM for IC50 (ANO1 del476-501/R631K; inhibitor; R605K mutant at -60 mV).
It gave 29.8 µM for IC50 (Anoctamin-1 (ANO1, Homo sapiens, UniProt Q5XXA6, del476-501/F623A); membrane voltage -100 mV).
For Anoctamin-1 (ANO1, Homo sapiens, UniProt Q5XXA6, del476-501/F646A); membrane voltage -100 mV: IC50 read 7.11 µM.
For ANO1 del476-501/R631K; inhibitor; R605K mutant at 60 mV: IC50 read 7.4 µM.

Study 6
Organism: Sarcocystis neurona
Observed: parasite growth
Concentration: 10 µM
Notes: second screen
Relative to: untreated
`O=c1[nH]c(=O)n([C@H]2C[C@H](O)[C@@H](CO)O2)cc1F` — result for “log2 fold change”: -0.27.
Under “log2 fold change”, `CC(C)[N+]1(C)[C@@H]2CC[C@H]1CC(OC(=O)C(CO)c1ccccc1)C2.[Br-]` (some centres unmarked) is recorded as 0.31.
`COc1cc(C[C@@H](CO)[C@H](CO)Cc2ccc(O)c(OC)c2)ccc1O` — result for “log2 fold change”: 0.15.
`Nc1ncn([C@@H]2O[C@H](CO)[C@@H](O)[C@H]2O)c(=O)n1`: “log2 fold change” 0.47.
Under “log2 fold change”, `C[C@H]1C[C@H]2[C@@H]3CCC4=CC(=O)C=C[C@]4(C)[C@@]3(Cl)[C@@H](O)C[C@]2(C)[C@@]1(O)C(=O)CO` is recorded as 0.00845.

Study 7
Host: mouse
Sample: microsomes or S9
Concentration: 2 µM
Time: 0.5 h
For `COc1ccccc1N1C(=O)c2c(NC(C)=O)c3cc(F)ccc3n2CC1(C)C(=O)NC1CCCC1` (centres unmarked), the remaining compound was 8.84%.
For `CCC(C)c1ccc(O)c(NC(=O)c2nccnc2C(=O)O)c1` (centres unmarked), the remaining compound was greater than 100%.
For `CC(Nc1ncnc2c1NC(=O)CN2)c1cc2ccccc2nc1-c1ccccc1` (centres unmarked), the remaining compound was 0.882%.
`COc1ccccc1N1CCN(/N=C\C(Cl)=C\c2ccccc2)CC1` has a remaining compound of 74.9%.
`CN(C)C(=O)C1CNCCN1C(=O)OC(C)(C)C` (centres unmarked) has a remaining compound of 66.1%.
With `CCCc1cc(N2CCC3(CCC(=O)N(CCc4c[nH]cn4)C3)CC2)nc(C)n1` the remaining compound was 90.7%.

Excerpt of the above (study 3):
Serine/threonine-protein kinase Sgk2 (SGK2, Homo sapiens, UniProt Q9HBY8) — remaining binding: 100%.
The remaining binding was 77.9% (Calcium/calmodulin-dependent protein kinase type 1 (CAMK1, Homo sapiens, UniProt Q14012)).
It gave 100% for remaining binding (cGMP-dependent protein kinase 2 (PRKG2, Homo sapiens, UniProt Q13237)).
